Results of several laboratories.
Compare with care: the assays were run in different laboratories. ± marks the error that the study gave.
Target: Cytochrome P450 1A2 (CYP1A2, Homo sapiens, UniProt P05177)
Chain of UniProt P05177 (whole entry, looked up): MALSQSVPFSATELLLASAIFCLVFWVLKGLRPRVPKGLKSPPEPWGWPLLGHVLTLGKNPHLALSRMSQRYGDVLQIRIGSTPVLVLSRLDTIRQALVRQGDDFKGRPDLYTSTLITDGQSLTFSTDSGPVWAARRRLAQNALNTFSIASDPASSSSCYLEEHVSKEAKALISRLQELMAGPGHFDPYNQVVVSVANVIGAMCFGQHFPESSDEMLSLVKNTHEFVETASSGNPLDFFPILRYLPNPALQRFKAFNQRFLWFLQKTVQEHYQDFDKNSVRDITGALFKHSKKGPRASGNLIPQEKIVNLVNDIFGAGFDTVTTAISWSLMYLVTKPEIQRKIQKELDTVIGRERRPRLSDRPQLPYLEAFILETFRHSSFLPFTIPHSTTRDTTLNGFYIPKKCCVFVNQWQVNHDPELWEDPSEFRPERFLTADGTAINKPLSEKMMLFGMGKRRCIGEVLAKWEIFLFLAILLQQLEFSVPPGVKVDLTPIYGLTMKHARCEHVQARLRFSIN

With `C(#Cc1cncc(OC[C@@H]2CCN2)c1)c1ccccc1` the IC50 was 10.6 µM (enzyme activity, inhibitor, fluorescence).
For `c1ccc(C2(CCNC3CCC4(SCCS4)c4ccccc43)CCOC3(CCCC3)C2)nc1` (centres unmarked), the IC50 was greater than 30 µM (enzyme activity, inhibitor; human, liver microsomes).
`C[C@H](NCc1ccc(-c2ccc(C(F)(F)F)cc2)cc1)C(N)=O` has an IC50 of greater than 10 µM (enzyme activity, inhibitor, luciferase; 1A2; pH 7.4).
With `O=C1Cc2cc(CCN3CCN(C4=NS(=O)(=O)c5ccccc54)CC3)c(Cl)cc2N1` the IC50 was 17.1 µM (inhibitor; human liver microsomes; added: phenacetin).
For `COc1ccc(F)cc1S(=O)(=O)Nc1cnc2c(c1)C(=O)NCCO2`, the IC50 was greater than 100 µM (enzyme activity, inhibitor; human, liver microsomes; with preincubation).
For `Cc1ccc(N2CC3CCC(C2)N3C)cc1C(=O)N[C@H](C)c1cc(-c2cnn(C)c2)nc2ccccc12`, the IC50 was greater than 50 µM (enzyme activity).
The IC50 of `CCn1ccc(-c2cc(-c3cnn(C)c3)cc([C@@H](C)NC(=O)c3cc(OCCN(C)C)ccc3C)c2)n1` is reported as greater than 50 µM (enzyme activity, inhibitor; pooled human liver microsomes; 10 (unit not given)).
With `CCCCCc1cc(O)c2c(c1)OC(C)(C)C1CCC(C)=CC21` (single isomer, unassigned; (-)) the IC50 was 2.7 ± 1.2 µM (enzyme activity, inhibitor; microsomes from HEK293 cells; pH 7.4, added: phenacetin).
